Published values pooled from the literature.
± gives the spread as reported. Values after ≈ are worked out from the molar mass of the structure shown.

CCCCCOc1ccc(-c2ccc(-c3ccc(C(=O)N[C@H]4C[C@@H](O)[C@@H](O)NC(=O)[C@@H]5[C@@H](O)[C@@H](C)CN5C(=O)[C@H]([C@@H](C)O)NC(=O)[C@H]([C@H](O)[C@@H](O)c5ccc(O)cc5)NC(=O)[C@@H]5C[C@@H](O)CN5C(=O)[C@H]([C@@H](C)O)NC4=O)cc3)cc2)cc1  AUC(0-24) steady state mean (patients aged sample B to <sample C years, plasma; intravenous, loading 200 then 100 mg daily): 92100 ng·h/mL
[Met(O)35]Aβ40  time to fibril formation (electron microscopy; sodium phosphate buffer; 10 µM, pH 7.4, 25 °C, agitation 200 rpm): ≤ 96 h
[123I]c1cncc(OC[C@@H]2CCN2)c1  tissue/plasma ratio (SPECT; human, cingulate gyrus; intravenous bolus plus infusion, 7.6 mCi; reference: tissue over plasma): 31.9
Cc1ccc(Nc2nccc(N(C)c3ccc4c(C)n(C)nc4c3)n2)cc1S(N)(=O)=O  Cmin (patients, plasma; oral, 600 mg, 24 h, with food, geometric mean, together with: omeprazole): 22900 ng/mL
CCCCCCCCCC(=O)N[C@@H](Cc1c[nH]c2ccccc12)C(=O)N[C@H](CC(N)=O)C(=O)N[C@@H](CC(=O)O)C(=O)N[C@@H]1C(=O)NCC(=O)N[C@@H](CCCN)C(=O)N[C@@H](CC(=O)O)C(=O)N[C@H](C)C(=O)N[C@@H](CC(=O)O)C(=O)NCC(=O)N[C@H](CO)C(=O)N[C@@H]([C@H](C)CC(=O)O)C(=O)N[C@@H](CC(=O)c2ccccc2N)C(=O)O[C@@H]1C  elimination rate constant (male Wistar rat, plasma; subcutaneous, 50 mg/kg, single dose): 0.44 ± 0.06 h⁻¹
CC(C)[C@@H]1NC(=O)CNC(=O)[C@H](CC(N)=O)NC(=O)[C@H](CCCNC(=N)N)NC(=O)[C@H](Cc2ccc(O)cc2)NC(=O)[C@H](C(C)C)NC(=O)[C@@H](NC(=O)[C@@H](NC(=O)[C@H](CC(N)=O)NC(=O)[C@H](Cc2c[nH]c3ccccc23)NC(=O)[C@H](C)NC(=O)[C@H](Cc2ccccc2)NC(=O)CN)C(C)C)CSSC[C@@H](C(=O)N[C@@H](Cc2cnc[nH]2)C(=O)N[C@@H](CCCNC(=N)N)C(=O)N[C@@H](CCCNC(=N)N)C(=O)N[C@@H](C)C(=O)N[C@@H](CC(N)=O)C(N)=O)NC(=O)[C@H](C(C)C)NC(=O)[C@H](CCCNC(=N)N)NC1=O  remaining peptide (mouse mammary gland homogenate; 2560 µM, 24 h): < 14.5%
COc1ccc(-c2cc(=O)c3c(OC)c(OC)c(OC)c(OC)c3o2)cc1OC  tissue to peel content ratio (C57BL/6 mouse, male, colon; oral, 1% w/w in diet, 6 weeks, orange peel extract diet; reference: content in orange peel): 0.248%
CCc1c2c(nc3ccc(OC(=O)N4CCC(NCCCCC(=O)O)CC4)cc13)-c1cc3c(c(=O)n1C2)COC(=O)C3(O)CC (centres unmarked)  AUC (plasma; concentration not given, together with: methimazole; reference: without methimazole): no effect
O=[N+]([O-])CCO  apparent permeability (rabbit cornea ex vivo; 100 mM, 30 to 120 min, 37 °C, intact epithelium): 43.3 ×10⁻⁶ cm/s
NC(=O)c1nc(F)c[nH]c1=O  solubility (UV-Vis spectrophotometry; supercritical CO2; 120 min, 328 K, 18 MPa, 724.13 kg/m^3): 360 µg/mL (≈ 2290 µM)
CC(C)C[C@H](NC(=O)[C@H](CCC(=O)O)NC(=O)[C@H](CCC(=O)O)NC(=O)[C@H](CC(=O)O)NC(=O)[C@H](CCC(=O)O)NC(=O)[C@H](CCC(=O)O)NC(=O)[C@H](CCC(=O)O)NC(=O)[C@@H](N)CC(=O)O)C(=O)O  concentration (rat, CSF; intranasal, 5.5 mg/kg, 150 min): 0.704 ng/mL
CCOc1cc(Oc2ccc(C(F)(F)F)cc2Cl)ccc1[N+](=O)[O-]  tissue/plasma ratio (Sprague-Dawley rat, male, thyroid gland; oral, 7.5 to 62.5 mg/kg daily, 8 days; reference: thyroid over serum): 4 to 5
CCCCCCCCCCCCCC[N+](C)(C)CCCCCCCCCCCCCC  hepatic clearance (in vitro-in vivo extrapolation; human): 0.679 mL/h/g liver
CC[C@H](C)[C@H](NC(=O)[C@@H](N)CCCNC(=N)N)C(=O)N[C@H](C(=O)N1CCC[C@H]1C(=O)N[C@@H](C)C(N)=O)C(C)C  Tmax (healthy volunteers, both sexes, plasma; intravenous infusion, 2.0 mg/kg, single ascending dose): 0.0733 ± 0.0133 h
COc1cc(-c2nc(-c3ccccc3)c(-c3cccs3)[nH]2)cc(OC)c1OP(=O)(O)O  remaining compound (C57BL/6 mouse, CES1 knockout, brain homogenate; 10 µM, 1 h, 37 °C): > 75%
CC(C)c1nc(CN(C)C(=O)N[C@H](C(=O)N[C@@H](Cc2ccccc2)C[C@H](O)[C@H](Cc2ccccc2)NC(=O)OCc2cncs2)C(C)C)cs1  AUC(0-24) (healthy human volunteers, plasma; oral, dose not given, together with: warfarin plus 2D regimen): 11700 ng·h/mL
CC[C@H](C)[C@H](NC(=O)[C@H](C)NC(=O)[C@H](CCCCN)NC(=O)[C@H](CC(C)C)NC(=O)[C@H](C)NC(=O)[C@@H](NC(=O)[C@H](Cc1c[nH]cn1)NC(=O)[C@H](CC(C)C)NC(=O)[C@@H](NC(=O)[C@@H](NC(=O)[C@H](CCCCN)NC(=O)[C@H](CCCCN)NC(=O)[C@H](C)NC(=O)[C@H](CO)NC(=O)[C@H](CCCCN)NC(=O)[C@H](Cc1ccccc1)NC(=O)[C@@H](NC(=O)[C@H](CCCCN)NC(=O)[C@H](CC(C)C)NC(=O)[C@H](Cc1ccccc1)NC(=O)[C@H](CO)NC(=O)[C@H](CCCCN)NC(=O)[C@H](Cc1c[nH]c2ccccc12)NC(=O)[C@H](CCCCN)NC(C)=O)[C@@H](C)O)[C@@H](C)O)C(C)C)[C@@H](C)O)C(=O)N[C@@H](CO)C(=O)N[C@@H](CO)C(N)=O  mean residue ellipticity (circular dichroism at 222 nm; buffer with 50% TFE; 75 µM, 65 °C): -22800 deg cm² dmol⁻¹
CN[C@@](C)(C[18F])C(=O)O  tissue uptake (SCID mouse A549 xenograft, pancreas; 120 min, post injection): 20 ± 2.7 %ID/g
CC(=O)N[C@H](CCCCNC(=O)C(C)F)C(=O)N[C@@H](CS)C(=O)N[C@@H](CS)C(=O)N[C@@H](CCC(=O)O)C(=O)N[C@@H](Cc1c[nH]cn1)C(=O)N[C@H](Cc1ccccc1)C(=O)N[C@@H](CCCNC(=N)N)C(=O)N[C@@H](Cc1c[nH]c2ccccc12)C(=O)N[C@@H](CS)C(=O)N[C@@H](CCCNC(=N)N)C(=O)N1CCC[C@H]1C(=O)N[C@H](C(N)=O)C(C)C (some centres unmarked) [fluorine-18 labelled]  tissue uptake (nude mice, A375M xenograft, muscle; intravenous, 2 h): 0.19 ± 0.08 %ID/g
CSCC[C@@H]1NC(=O)[C@H](CC(=O)O)NC(=O)CNC(=O)[C@H](CCCNC(=N)N)NC(=O)[C@H](C)NC(=O)[C@H](CCC(=O)O)NC(=O)[C@H](CCCNC(=N)N)NC(=O)[C@@H]2CSSC[C@@H]3NC(=O)[C@H](CO)NC(=O)[C@H]([C@@H](C)O)NC(=O)[C@@H]4CCCN4C(=O)[C@H](C)NC(=O)[C@H](Cc4c[nH]c5ccccc45)NC(=O)[C@H](CC(=O)O)NC(=O)CNC(=O)[C@H](CCCNC(=N)N)NC(=O)CNC(=O)[C@H](CCC(N)=O)NC(=O)[C@@H]4CCCN4C(=O)[C@@H](NC(=O)CNC(=O)C(C)F)CSSC[C@H](NC(=O)CNC(=O)[C@H](C)NC(=O)[C@H](CC(C)C)NC(=O)[C@H](CSSC[C@@H](C(=O)NCC(N)=O)NC(=O)[C@H]([C@@H](C)O)NC(=O)[C@H](CCCNC(=N)N)NC(=O)[C@@H]4CCCN4C1=O)NC(=O)[C@H](CC(=O)O)NC(=O)[C@H](CO)NC(=O)[C@H](CC(=O)O)NC(=O)[C@H](CCC(N)=O)NC(=O)[C@H](CO)NC3=O)C(=O)N[C@@H](C(C)C)C(=O)N2 (some centres unmarked) [fluorine-18 labelled]  tissue uptake (nude mice U-87 MG xenograft, stomach; intravenous, 2.5 h): 0.68 ± 0.16 %ID/g
Cc1ccc(N)cc1N  micronucleated binucleated cells (EpiDerm EPI-200 skin tissue; concentration not given, 48 h protocol, two treatments; reference: solvent control): increased
O[C@H]1CCCN[C@@H]1CCCn1cnc2c(Cl)c(Cl)ccc21  Tmax (human, plasma; oral, 300 mg, single dose, healthy volunteers): 2.5 h
CC[C@H](C)CCCCC(=O)N[C@@H](CCN)C(=O)N[C@H](C(=O)N[C@@H](CCN)C(=O)N[C@H]1CCNC(=O)[C@H]([C@@H](C)O)NC(=O)[C@H](CCN)NC(=O)[C@H](CCN)NC(=O)[C@H](CC(C)C)NC(=O)[C@@H](Cc2ccccc2)NC(=O)[C@H](CCN)NC1=O)[C@@H](C)O  Vss (ND4 Swiss Webster mouse, female, serum; intravenous, 3 mg/kg, aqueous solution): 0.373 L/kg

A few entries again:
CC[C@H](C)CCCCC(=O)N[C@@H](CCN)C(=O)N[C@H](C(=O)N[C@@H](CCN)C(=O)N[C@H]1CCNC(=O)[C@H]([C@@H](C)O)NC(=O)[C@H](CCN)NC(=O)[C@H](CCN)NC(=O)[C@H](CC(C)C)NC(=O)[C@@H](Cc2ccccc2)NC(=O)[C@H](CCN)NC1=O)[C@@H](C)O  Vss (ND4 Swiss Webster mouse, female, serum; intravenous, 3 mg/kg, aqueous solution): 0.373 L/kg
